Experimental data of several laboratories.
Each line is one published result; not all experiments were run side by side. Several values in a cell are separate wells, animals, samples, runs or records. Numbers after ± are the reported error.
ache: Acetylcholinesterase (ache, Electrophorus electricus, UniProt O42275)
Chain of UniProt Q9ULC6 (whole entry, looked up): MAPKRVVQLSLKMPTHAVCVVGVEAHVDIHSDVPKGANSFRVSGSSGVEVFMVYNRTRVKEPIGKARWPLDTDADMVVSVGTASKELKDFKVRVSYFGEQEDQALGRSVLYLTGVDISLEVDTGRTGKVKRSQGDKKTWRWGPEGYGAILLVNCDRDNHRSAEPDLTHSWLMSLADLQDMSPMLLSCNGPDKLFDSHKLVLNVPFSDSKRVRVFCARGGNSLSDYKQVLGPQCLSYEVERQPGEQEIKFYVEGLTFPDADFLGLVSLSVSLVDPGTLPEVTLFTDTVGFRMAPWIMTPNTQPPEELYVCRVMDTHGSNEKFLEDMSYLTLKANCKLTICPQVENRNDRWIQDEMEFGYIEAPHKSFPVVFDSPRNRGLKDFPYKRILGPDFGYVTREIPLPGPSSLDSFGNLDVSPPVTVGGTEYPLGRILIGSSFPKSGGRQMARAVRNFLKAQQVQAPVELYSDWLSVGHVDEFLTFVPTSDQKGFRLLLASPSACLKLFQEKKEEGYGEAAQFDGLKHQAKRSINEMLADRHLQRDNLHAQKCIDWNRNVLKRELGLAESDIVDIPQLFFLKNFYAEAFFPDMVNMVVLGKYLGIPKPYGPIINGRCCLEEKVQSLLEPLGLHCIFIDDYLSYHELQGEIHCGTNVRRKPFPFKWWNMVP
Chain of UniProt Q15139 (whole entry, looked up): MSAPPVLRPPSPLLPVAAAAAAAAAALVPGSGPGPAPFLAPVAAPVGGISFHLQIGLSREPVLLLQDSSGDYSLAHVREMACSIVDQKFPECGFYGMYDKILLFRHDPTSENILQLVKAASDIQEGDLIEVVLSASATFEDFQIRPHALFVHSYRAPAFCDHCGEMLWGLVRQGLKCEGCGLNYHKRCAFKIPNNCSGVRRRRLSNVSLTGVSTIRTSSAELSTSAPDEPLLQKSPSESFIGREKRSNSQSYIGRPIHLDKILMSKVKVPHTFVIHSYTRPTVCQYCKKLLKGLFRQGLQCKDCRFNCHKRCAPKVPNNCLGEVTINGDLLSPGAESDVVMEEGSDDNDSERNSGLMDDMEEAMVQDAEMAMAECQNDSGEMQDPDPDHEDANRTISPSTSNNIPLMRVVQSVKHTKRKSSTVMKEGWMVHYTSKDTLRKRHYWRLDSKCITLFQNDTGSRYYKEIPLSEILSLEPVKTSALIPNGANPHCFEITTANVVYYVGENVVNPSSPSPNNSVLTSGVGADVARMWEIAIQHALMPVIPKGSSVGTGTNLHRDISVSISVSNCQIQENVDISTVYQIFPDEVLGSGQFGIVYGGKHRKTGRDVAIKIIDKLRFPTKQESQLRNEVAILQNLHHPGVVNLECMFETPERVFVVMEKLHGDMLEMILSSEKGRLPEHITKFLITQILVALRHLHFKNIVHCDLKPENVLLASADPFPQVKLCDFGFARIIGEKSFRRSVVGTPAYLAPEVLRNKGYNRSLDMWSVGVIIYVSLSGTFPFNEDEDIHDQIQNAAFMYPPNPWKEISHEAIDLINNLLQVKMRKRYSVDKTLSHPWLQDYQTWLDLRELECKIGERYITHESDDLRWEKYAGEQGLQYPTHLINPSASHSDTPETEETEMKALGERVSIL
Chain of UniProt O42275 (whole entry, looked up): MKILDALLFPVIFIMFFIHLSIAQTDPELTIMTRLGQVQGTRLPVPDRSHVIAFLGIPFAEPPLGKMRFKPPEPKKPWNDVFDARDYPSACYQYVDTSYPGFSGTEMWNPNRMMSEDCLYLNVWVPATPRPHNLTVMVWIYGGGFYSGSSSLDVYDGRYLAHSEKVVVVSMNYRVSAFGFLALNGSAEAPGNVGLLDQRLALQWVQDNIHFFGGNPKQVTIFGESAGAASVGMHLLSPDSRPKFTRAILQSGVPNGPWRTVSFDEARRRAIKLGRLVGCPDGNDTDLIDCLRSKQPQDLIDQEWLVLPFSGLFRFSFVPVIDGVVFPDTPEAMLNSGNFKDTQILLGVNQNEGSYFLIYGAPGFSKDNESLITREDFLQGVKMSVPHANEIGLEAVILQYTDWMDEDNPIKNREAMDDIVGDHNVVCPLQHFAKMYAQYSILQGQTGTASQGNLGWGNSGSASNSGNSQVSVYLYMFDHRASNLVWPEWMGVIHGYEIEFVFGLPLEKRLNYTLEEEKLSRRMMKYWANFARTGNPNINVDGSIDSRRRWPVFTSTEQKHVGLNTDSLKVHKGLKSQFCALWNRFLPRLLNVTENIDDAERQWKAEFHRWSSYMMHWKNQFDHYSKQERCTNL
Chain of UniProt P41145 (whole entry, looked up): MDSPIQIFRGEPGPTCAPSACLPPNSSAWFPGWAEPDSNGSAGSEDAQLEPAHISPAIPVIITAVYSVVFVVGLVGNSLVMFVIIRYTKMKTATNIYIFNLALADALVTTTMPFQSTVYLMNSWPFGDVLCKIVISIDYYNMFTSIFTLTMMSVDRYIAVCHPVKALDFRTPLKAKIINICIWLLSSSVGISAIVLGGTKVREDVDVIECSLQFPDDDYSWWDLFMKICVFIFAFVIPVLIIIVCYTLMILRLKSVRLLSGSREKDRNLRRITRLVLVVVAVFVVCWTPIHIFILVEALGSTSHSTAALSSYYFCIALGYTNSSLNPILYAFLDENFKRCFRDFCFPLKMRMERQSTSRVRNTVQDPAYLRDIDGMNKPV
Chain of UniProt P07949 (whole entry, unmodified, looked up): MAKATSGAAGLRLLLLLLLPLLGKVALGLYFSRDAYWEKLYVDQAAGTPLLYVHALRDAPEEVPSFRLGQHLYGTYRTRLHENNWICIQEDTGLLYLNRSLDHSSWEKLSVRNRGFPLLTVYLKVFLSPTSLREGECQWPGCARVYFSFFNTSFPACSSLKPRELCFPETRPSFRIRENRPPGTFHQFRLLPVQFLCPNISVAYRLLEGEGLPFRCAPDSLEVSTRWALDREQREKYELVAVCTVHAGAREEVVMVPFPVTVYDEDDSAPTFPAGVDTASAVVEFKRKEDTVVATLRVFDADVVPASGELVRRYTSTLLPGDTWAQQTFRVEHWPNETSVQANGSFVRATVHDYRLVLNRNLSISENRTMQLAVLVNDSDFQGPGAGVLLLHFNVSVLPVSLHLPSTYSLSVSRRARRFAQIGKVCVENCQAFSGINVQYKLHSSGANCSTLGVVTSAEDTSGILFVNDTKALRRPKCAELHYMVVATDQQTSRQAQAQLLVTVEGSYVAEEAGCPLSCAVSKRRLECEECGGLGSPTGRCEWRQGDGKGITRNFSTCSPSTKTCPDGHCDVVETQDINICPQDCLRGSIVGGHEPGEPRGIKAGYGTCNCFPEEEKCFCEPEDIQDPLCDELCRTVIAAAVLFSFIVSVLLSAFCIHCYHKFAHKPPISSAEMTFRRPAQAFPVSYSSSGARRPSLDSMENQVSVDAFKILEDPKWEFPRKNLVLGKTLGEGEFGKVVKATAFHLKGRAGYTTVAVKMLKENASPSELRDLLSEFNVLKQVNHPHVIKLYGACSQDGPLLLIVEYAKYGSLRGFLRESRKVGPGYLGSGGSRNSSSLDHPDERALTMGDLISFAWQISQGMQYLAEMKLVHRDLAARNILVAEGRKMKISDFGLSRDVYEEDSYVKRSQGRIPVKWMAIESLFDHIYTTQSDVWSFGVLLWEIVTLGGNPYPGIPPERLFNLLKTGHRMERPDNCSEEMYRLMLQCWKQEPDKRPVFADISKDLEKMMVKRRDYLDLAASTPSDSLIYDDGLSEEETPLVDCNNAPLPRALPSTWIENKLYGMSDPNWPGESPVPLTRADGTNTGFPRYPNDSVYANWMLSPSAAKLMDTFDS
Chain of UniProt Q13639 (whole entry, looked up): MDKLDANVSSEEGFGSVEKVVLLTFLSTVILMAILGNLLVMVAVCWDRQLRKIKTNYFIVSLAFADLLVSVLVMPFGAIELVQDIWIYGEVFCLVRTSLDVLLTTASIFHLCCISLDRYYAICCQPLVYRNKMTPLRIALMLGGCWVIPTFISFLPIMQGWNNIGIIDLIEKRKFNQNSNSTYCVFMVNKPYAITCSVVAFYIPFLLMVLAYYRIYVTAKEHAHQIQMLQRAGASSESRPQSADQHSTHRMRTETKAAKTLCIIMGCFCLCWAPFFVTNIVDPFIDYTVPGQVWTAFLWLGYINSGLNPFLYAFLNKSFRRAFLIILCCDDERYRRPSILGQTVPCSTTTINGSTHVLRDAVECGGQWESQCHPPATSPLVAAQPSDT
Chain of UniProt O14757 (whole entry, looked up): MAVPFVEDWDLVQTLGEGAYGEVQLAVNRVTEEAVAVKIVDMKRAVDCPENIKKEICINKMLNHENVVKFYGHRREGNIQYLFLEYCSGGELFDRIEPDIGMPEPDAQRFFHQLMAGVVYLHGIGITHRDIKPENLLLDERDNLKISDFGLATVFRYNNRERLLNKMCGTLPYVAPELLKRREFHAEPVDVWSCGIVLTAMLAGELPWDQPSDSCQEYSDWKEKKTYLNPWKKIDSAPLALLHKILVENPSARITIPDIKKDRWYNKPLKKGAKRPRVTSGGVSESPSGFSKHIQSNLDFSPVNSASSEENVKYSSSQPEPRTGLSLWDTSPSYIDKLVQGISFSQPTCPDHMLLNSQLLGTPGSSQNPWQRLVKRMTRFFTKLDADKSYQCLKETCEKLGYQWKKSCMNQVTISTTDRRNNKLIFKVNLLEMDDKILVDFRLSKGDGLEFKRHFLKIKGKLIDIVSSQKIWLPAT
Chain of UniProt Q9BQB6 (whole entry, looked up): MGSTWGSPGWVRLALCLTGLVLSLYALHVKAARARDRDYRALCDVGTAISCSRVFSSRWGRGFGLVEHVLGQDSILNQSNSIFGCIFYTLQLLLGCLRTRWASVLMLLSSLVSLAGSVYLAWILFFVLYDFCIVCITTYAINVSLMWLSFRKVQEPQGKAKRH

`O=C(O)C(/C=C/c1ccc(Cl)cc1)=N\Nc1nc(-c2ccc(Br)cc2)cs1` gave a selectivity index of 52 (ache; Ellman; baseline: IC50 BChE over IC50 AChE).
`CC#CC(=O)NC[C@H](NC(=O)[C@H](CC1CCCCC1)NC(=O)[C@H](CCC(N)=O)NC(C)=O)C(=O)N[C@@H](CC(C)C)C(=O)N[C@@H](Cc1ccccc1)C(=O)O` has a ΔH of -9.98 kcal/mol (Beta sliding clamp (Escherichia coli, UniProt P0A988, H175G); binding, isothermal titration calorimetry; 25 °C, H175G mutant peptide).
For `N[C@H](C(=O)N1CCCC1)C1CCN(c2nccc3c(-c4ncc(Cl)cc4Cl)cccc23)CC1`, the kcat was 0.225 s⁻¹ and 0.233 s⁻¹ (Protein-arginine deiminase type-1 (PADI1, Homo sapiens, UniProt Q9ULC6); enzyme activity; 0.0983 µM, added: Ca2+ 0.25 mM).
With `Cc1c(/N=N/c2ccccc2)cccc1[B-](F)(F)F.[K+]` the switching factor was 2.6 ± 0.5 (Chymotrypsinogen A (Bos taurus, UniProt P00766); enzyme activity, inhibitor; added: Suc-AAPF-AMC; baseline: Ki cis over Ki trans).
The inhibition of `CC(C)[C@H]1NC(=O)C[C@H]2/C=C/CCSSC[C@@H](NC1=O)C(=O)N[C@H](Cc1cccc3ccccc13)C(=O)NCC(=O)O2` is reported as 3.2% (Proto-oncogene tyrosine-protein kinase receptor Ret (RET, Homo sapiens, UniProt P07949, M918T); enzyme activity, inhibitor; 10 µM).
Under activity, `CCc1nc2ccc(C(=O)NCCOc3ccc(OC)cc3)cn2c1N(C)Cc1ccc(OC)cc1` is recorded as “active” (ache; inhibitor; 5 µM).
For `O=C(Cc1ccc(Cl)c(Cl)c1)N1CCN(CC2CC2)[C@@H]2COC[C@H](N3CCCC3)[C@H]21` (relative stereo), the Emax was 101% (Kappa-type opioid receptor (OPRK1, Homo sapiens, UniProt P41145); agonist; 0.3333 h).
`O=C1NC(=O)c2c1c1cc(F)c[n+]3c1c1c2c2cc(O)ccc2[n]1[Ru-4]312([N]=C=S)[S+]3CC[S+]1CC[S+]2CC3` (stereo not shown) gave a remaining activity of 65% (Serine/threonine-protein kinase Chk1 (CHEK1, Homo sapiens, UniProt O14757); enzyme activity; 100 nM, human enzyme, added: 10 µM ATP; baseline: untreated).
`CS(C)(=O)=Nc1ccc(-c2ccc(-c3nc4cc(O[C@@H]5CO[C@H]6[C@@H]5OC[C@H]6O)[nH]c4cc3F)cc2)cc1` has an inhibition of -8% (5-hydroxytryptamine receptor 4, isoform 5-HT4e (HTR4, Homo sapiens, UniProt Q13639); agonist response, antagonist; 10 µM; baseline: control agonist response).
`C#CCCCCOc1ccc2c(c1)CCCN2C(=O)CCl` has a reactivity ratio of 1.55 (Vitamin K epoxide reductase complex subunit 1 (VKORC1, Homo sapiens, UniProt Q9BQB6); mass spectrometry profiling; H460 cell lysate; 100 µM over 10 µM, UniProt Q9BQB6; baseline: high over low concentration).
The remaining activity of `[CH3][Ti+2][O]C(=O)c1ccc([S][Au][PH](c2ccccc2)(c2ccccc2)c2ccccc2)cc1.c1cc[cH-]c1.c1cc[cH-]c1` is reported as 81.5% (Serine/threonine-protein kinase D1 (PRKD1, Homo sapiens, UniProt Q15139); kinase activity; 1 µM, added: ATP 10 µM).
`O=C(O)c1cc(O)c2c(c1)[C@H]([C@H]1c3cc(C(=O)O)cc(O)c3C(=O)c3c(O[C@@H]4O[C@H](CO)[C@@H](O)[C@H](O)[C@H]4O)cccc31)c1cccc(O[C@@H]3O[C@H](CO)[C@@H](O)[C@H](O)[C@H]3O)c1C2=O` gave a remaining activity of 5.44% (Pancreatic triacylglycerol lipase (PNLIP, Homo sapiens, UniProt P16233); enzyme activity, inhibitor, fluorescence; 50 µM).
For `CN(C)[C@H]1C[C@@]23CC[C@@]4(O2)C(=CC[C@]2(C)[C@@H](c5ccc6ccncc6c5)CC[C@H]24)C=C3[C@@H](O)[C@@H]1O`, the inhibition was 14.7% (Eukaryotic elongation factor 2 kinase (EEF2K, Homo sapiens, UniProt O00418); ATP probe labelling, inhibitor, KiNativ profiling; 0.1 µM).

Some of these lines once more:
For `O=C(Cc1ccc(Cl)c(Cl)c1)N1CCN(CC2CC2)[C@@H]2COC[C@H](N3CCCC3)[C@H]21` (relative stereo), the Emax was 101% (Kappa-type opioid receptor (OPRK1, Homo sapiens, UniProt P41145); agonist; 0.3333 h).
`O=C1NC(=O)c2c1c1cc(F)c[n+]3c1c1c2c2cc(O)ccc2[n]1[Ru-4]312([N]=C=S)[S+]3CC[S+]1CC[S+]2CC3` (stereo not shown) gave a remaining activity of 65% (Serine/threonine-protein kinase Chk1 (CHEK1, Homo sapiens, UniProt O14757); enzyme activity; 100 nM, human enzyme, added: 10 µM ATP; baseline: untreated).
